# Results from different studies.
# Organism: Staphylococcus aureus
Structure (SMILES),test,system,setting,MIC
CCCCCCCCCCCC[N+](C)(C)CCCCCCOc1cc(OCCCCCC[N+](C)(C)CCCCCCCCCCCC)cc(OCCCCCC[N+](C)(C)CCCCCCCCCCCC)c1.[Br-].[Br-].[Br-],,HA-MRSA ATCC 33591,,16 µM
CC[C@H](C)[C@H](N)C1=N[C@H](C(=O)N[C@@H](CC(C)C)C(=O)N[C@H](CCC(=O)O)C(=O)N[C@H](C(=O)N[C@H]2CCCCNC(=O)[C@H](CC(N)=O)NC(=O)[C@@H](CC(=O)O)NC(=O)[C@H](Cc3c[nH]cn3)NC(=O)[C@@H](Cc3ccccc3)NC(=O)[C@H]([C@@H](C)CC)NC(=O)[C@@H](CCCN)NC2=O)[C@@H](C)CC)CS1,broth microdilution,"USA300 MRSA, LB medium",no added Zn2+,32 µg/mL
C/C(=C\c1ccc(O)cc1)C(=O)Nc1ccc(C(=O)N[C@@H](Cc2c[nH]nn2)C(=O)Nc2ccc(C(=O)Nc3ccc(C(=O)Nc4ccc(C(=O)O)cc4)cc3)cc2)cc1,broth microdilution,ciprofloxacin-sensitive,,32 µg/mL
COc1c(C)c(OS(=O)(=O)c2ccccc2)c(C)c2c1C(=O)CC(c1ccccc1)O2 (centres unmarked),"microbial growth, broth dilution",ATCC25923,,5000 µg/mL
CC[C@H](C)[C@H](NC(=O)[C@@H](CCCNC(=N)N)NC(=O)[C@H](CCCNC(=N)N)NC(=O)[C@@H]1CCCN1C(=O)[C@@H]1CCCN1C(=O)[C@H](CCCCN)NC(=O)[C@@H]1CCCN1C(=O)[C@H](CCCNC(=N)N)NC(=O)[C@@H]1CCCN1C(=O)[C@H](CC(C)C)NC(=O)[C@H](Cc1ccc(O)cc1)NC(=O)[C@@H]1CCCN1C(=O)[C@@H]1CCCN1C(=O)[C@H](CCCCN)NC(=O)[C@H](CC(=O)O)NC(=O)[C@@H](N)C(C)C)C(=O)N[C@@H](Cc1ccc(O)cc1)C(=O)N[C@@H](CC(N)=O)C(=O)N[C@H](CCCNC(=N)N)C(N)=O,broth microdilution,DSM 6247,"18 h, 37 °C, 25% MHB2",> 128 µg/mL
Oc1c(Br)cc(Br)c2nc3cc(C(F)(F)F)ccc3nc12,,147 MRSA clinical isolate,,0.08 µM
CC[C@H]1OC(=O)[C@H](C)[C@@H](OC(=O)Cc2ccc(N(C)C)cc2)[C@H](C)[C@@H](O[C@@H]2O[C@H](C)C[C@H](N(C)C)[C@H]2O)[C@](C)(OC)C[C@@H](C)C(=O)[C@H](C)[C@@H](O)[C@]1(C)O,,DSM 20231 MSSA,,32 µg/mL
CCC(CC)c1cc(CCN2CCCN(C(=O)OC(C)(C)C)CC2)nc(-c2cccnc2)n1,"microbial growth, broth dilution",ATCC29213,,> 16 µg/mL
CC[C@H]1OC(=O)[C@H](C)[C@@H](OC(=O)c2ccc(N)cc2)[C@H](C)[C@@H](O[C@@H]2O[C@H](C)C[C@H](N(C)C)[C@H]2O)[C@](C)(OC)C[C@@H](C)C(=O)[C@H](C)[C@@H](O)[C@]1(C)O,,ATCC 43300 MRSA,,> 256 µg/mL
CCCCCCCCCCCC[N+](C)(C)CCCCCCCCCCOc1cc(OCCCCCCCCCC[N+](C)(C)CCCCCCCCCCCC)cc(OCCCCCCCCCC[N+](C)(C)CCCCCCCCCCCC)c1.[Br-].[Br-].[Br-],,SH1000 MSSA,,32 µM
CC[C@H]1OC(=O)[C@H](C)[C@@H](OC(=O)Cc2cccc(Cl)c2)[C@H](C)[C@@H](O[C@@H]2O[C@H](C)C[C@H](N(C)C)[C@H]2O)[C@](C)(OC)C[C@@H](C)C(=O)[C@H](C)[C@@H](O)[C@]1(C)O,,BAA-977,,4 µg/mL
COc1ccc(/N=N/C(=S)N2CCN(C)CC2)cc1,"microbial growth, broth dilution",ATCCBAA44 MRSA,24 h,> 50 µM
COc1c(NC(=O)c2ccc(NC(=O)c3ccc(NC(=O)[C@H](Cc4c[nH]nn4)NC(=O)c4ccc(NC(=O)/C(C)=C/c5ccc(O)cc5)cc4)cc3)c(OC)c2O)ccc(C(=O)O)c1O,broth microdilution,ciprofloxacin-resistant,,4 µg/mL
COC(=O)CNC(=O)c1ccc(NC(=O)c2[nH]c(C)c(Cl)c2Cl)c(N2CCN(C(=O)OC(C)(C)C)CC2)c1,"microbial growth, broth dilution",ATCC29213,,> 32 µg/mL
CC[C@H](C)[C@@H]1NC(=O)[C@@H]([C@@H](C)O)NC(=O)CNC(=O)[C@H](CC(=O)O)NC(=O)CNC(=O)[C@H](CC(=O)O)NC(=O)CNC(=O)[C@H]2CCCCN2C(=O)[C@@H](NC(=O)[C@H](CC(=O)O)NC(=O)/C=C/CCCCCCCCCC(C)C)CNC(=O)[C@@H]2CCCN2C1=O,broth microdilution,"MRSA USA300, Mueller-Hinton broth, Mg2+ 10 mg/L","16 h, 37 °C, with: Ca2+ 10 mM",2 µg/mL
CN[C@H](CC(C)C)C(=O)N[C@H]1C(=O)N[C@@H](CC(N)=O)C(=O)N[C@H]2C(=O)N[C@H]3C(=O)N[C@H](C(=O)N[C@H](C(=O)NCc4cn(CCCCC(=O)N[C@H](C(=O)N[C@@H](CCN)C(=O)N[C@H]5CCNC(=O)[C@H]([C@@H](C)O)NC(=O)[C@H](CCN)NC(=O)[C@H](CCN)NC(=O)[C@H](CC(C)C)NC(=O)[C@@H](CC(C)C)NC(=O)[C@H](CCN)NC5=O)[C@@H](C)O)nn4)c4cc(O)cc(O)c4-c4cc3ccc4O)[C@H](O)c3ccc(c(Cl)c3)Oc3cc2cc(c3O[C@@H]2O[C@H](CO)[C@@H](O)[C@H](O)[C@H]2O[C@H]2C[C@](C)(N)[C@H](O)[C@H](C)O2)Oc2ccc(cc2Cl)[C@H]1O,broth microdilution,"MSSA ATCC 29213, cation-adjusted Mueller-Hinton broth","20 to 24 h, 37 °C, 0.002% polysorbate 80",0.25 µg/mL
CCCCCCCCCCn1cc[n+](CCCCCCCCOc2cc(OCCCCCCCC[n+]3ccn(CCCCCCCCCC)c3)cc(OCCCCCCCC[n+]3ccn(CCCCCCCCCC)c3)c2)c1.[Br-].[Br-].[Br-],,CA-MRSA USA300-0114,,2 µM
CCCC(=O)Oc1c(C)c(OC)c2c(c1C)OC(=O)[C@@H](CC)[C@]2(O)/C=C/c1ccccc1 (racemic),"microbial growth, broth dilution",ATCC25923,,5000 µg/mL
CC[C@H]1OC(=O)[C@H](C)[C@@H](O[C@H]2C[C@@](C)(OC)[C@@H](O)[C@H](C)O2)[C@H](C)[C@@H](O[C@@H]2O[C@H](C)C[C@H](N(C)C)[C@H]2O)[C@](C)(O)C[C@@H](C)C(=O)[C@H](C)[C@@H](O)[C@]1(C)O,,DSM 20231 MSSA,,0.5 µg/mL
CCCCCCCCCC[N+](C)(C)CCCCOc1cc(OCCCC[N+](C)(C)CCCCCCCCCC)cc(OCCCC[N+](C)(C)CCCCCCCCCC)c1.[Br-].[Br-].[Br-],,CA-MRSA USA300-0114,,0.5 µM
CC[C@H]1OC(=O)[C@H](C)[C@@H](OC(=O)Cc2ccc(C(F)(F)F)cc2)[C@H](C)[C@@H](O[C@@H]2O[C@H](C)C[C@H](N(C)C)[C@H]2O)[C@](C)(OC)C[C@@H](C)C(=O)[C@H](C)[C@@H](O)[C@]1(C)O,microbial growth,BAA976,,8 µg/mL
CCCCCCCCCCn1cc[n+](CCCCCCOc2cc(OCCCCCC[n+]3ccn(CCCCCCCCCC)c3)cc(OCCCCCC[n+]3ccn(CCCCCCCCCC)c3)c2)c1.[Br-].[Br-].[Br-],,CA-MRSA USA300-0114,,2 µM
C[C@@H]1C(=O)O[C@@H](C)/C=C/C=C\[C@@H](C)[C@@H]2C=C[C@@H]3C[C@@]4(C)O[C@H]4[C@@H](C)[C@H]3[C@@H]2C(=O)C(Cl)(Cl)C1=O,,MRSA clinical isolate,OXA CLI ERY resistant,0.025 µg/mL

# Repeated from above:
Structure (SMILES),test,system,setting,MIC
CCCC(=O)Oc1c(C)c(OC)c2c(c1C)OC(=O)[C@@H](CC)[C@]2(O)/C=C/c1ccccc1 (racemic),"microbial growth, broth dilution",ATCC25923,,5000 µg/mL
CC[C@H](C)[C@@H]1NC(=O)[C@@H]([C@@H](C)O)NC(=O)CNC(=O)[C@H](CC(=O)O)NC(=O)CNC(=O)[C@H](CC(=O)O)NC(=O)CNC(=O)[C@H]2CCCCN2C(=O)[C@@H](NC(=O)[C@H](CC(=O)O)NC(=O)/C=C/CCCCCCCCCC(C)C)CNC(=O)[C@@H]2CCCN2C1=O,broth microdilution,"MRSA USA300, Mueller-Hinton broth, Mg2+ 10 mg/L","16 h, 37 °C, with: Ca2+ 10 mM",2 µg/mL
CCCCCCCCCCCC[N+](C)(C)CCCCCCOc1cc(OCCCCCC[N+](C)(C)CCCCCCCCCCCC)cc(OCCCCCC[N+](C)(C)CCCCCCCCCCCC)c1.[Br-].[Br-].[Br-],,HA-MRSA ATCC 33591,,16 µM
